Measured values gathered from unrelated publications.
Each numbered part is a random draw from the data of one study; scales do not carry over between parts.

Series 1
Target: RNA binding protein fox-1 homolog 2, RRM domain, GST-SBP tag (RBFOX2, Homo sapiens, UniProt O43251-10, residues 100-194)
Method: RNA Bind-n-Seq
Form: RNA
Sample: in vitro
Concentration: 365 nM
Setting: natural RNA segment, single round, ends assumed
Relative to: no-protein control
Reading: higher = stronger binding
Shared flanks, not repeated: GGGAGUUCUACAGUCCGACGAUC … UGGAAUUCUCGGGUGCCAA
Residues (chain): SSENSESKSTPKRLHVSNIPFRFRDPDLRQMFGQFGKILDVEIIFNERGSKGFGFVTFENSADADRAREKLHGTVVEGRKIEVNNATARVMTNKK
Strand	RBNS enrichment (R)
UAUUUUUAACUAUGUUACACUCGUAAAUGACAAAACCAAAUCUUCUAUUAAAAGGCAAAGAUGAUGGGACUGUGUCUGGUUUUUGCAUGUCCUCCCUCACCCCCCCACCC	3.03
GCCACUUCUCCCUGUCCACUAGAGGUCGCUGUCUUCACAGCUUCUCUCACCCUAGCCAAAGGUCCUAAGAGGAGACCCGCUGUGAAGUCUGGCCUGCUCUUUGGUACCAG	0.19
CGCCAUCAAACUUAUGGGCAGGGAUAACAGUGUGCCUGGUUAAUAUUAAUAUUCCCAUUUUAUUAAUAAUAUUUAUGUUGGGUCAAGUGUUAGGUCAAUAACACUGUAUU	0.462
GCUUCCCCCUUCCCCUGAGACUGGUGGACUGAACUCCAGUCAAGUUGAGUUCAAGUGAAAGAUUCUUCCAGGGUUUUAUUUUUUCCCCUCCUAACAAAGUCUCAUAGUGU	0.825
UAUUGUAGUUGGCUGUGCAUGGUACAAAUUUAUUAAUAUGAAGAAAUGCAAAAUGUAUUGCUUUUGAUAUUUCUAUUCUGAGAUGAACCAGUAGCAUGUAAUGCAACUGU	0.871
CUGCCUCCCUUGUCCUGUGAUUGUUCUGGAGGCUUCUGCCCAACUGCUUCACUUUCUCCAACCCUUCGUAGCUGCCUGGGCUCUUUUCCAACCUGUCAGGCUGGCGCCUU	0.752
AUGGCUCCUUCUUCAGAAUAGGUGCAGACCCCUCCCCGUGCCCGUUCCCUGCCACCCGGGGUAAGGAGGUGGCACUACCAGUCUGUCUAACCCACUCACUGGCUUUGACC	0.376
AUUUAUUUAUAGAAAUUUUGGUACAGUGUACAUUGAAAACCAUGUAAAAUAUUGAAGUGUCUAACAAAUGGCAUUGAAGUGUCUUUAAUAAAGGUUCAUUUAUAAAUGUC	0.368
AUGGUCUUUCUAAAUGAUUAAAGAAAUCAUUUGCGUUGGUUCUUGUUUUUUGUGUUUUCCCUCUAUUUUCAACCAAAUCCUAGAGCCAGCUGAGACUGCUGAGUAAUCUG	0.415
AAGUGUGUCUUACGUGCCACCACGGCGUUGUACCUGUAGGACUCUCAUUCGGGAUGAUUGGAAUAGCUUCUGGAAUUUGUUCAAGUUUUGGGUAUGUUUAAUCUGUUAUG	0.777
ACAAAGCAUCCCUUAGAAGUCCAUGCUGGGCAGACAUUGAACACAGUGCCUUAUUAUGUUUCUCCCUUGAAUGCUUCAGUGUUUUGAGUCAUACUCUAGAAUGGACUGAC	0.776
CAGUCAAACUGUGAAGCACUAAGCUGACCCUGCUUCAAGCAAUUUUGUUUUUACAACUGUUCCUUUCACAAGCAAGCCUUAAAAAAAAAAAAGACAACUUCCUUUUUCUU	0.783

Series 2
Target: Histone acetyltransferase KAT6A, both winged helices, GST fusion (KAT6A, Homo sapiens, UniProt Q92794, residues 1-181)
Method: protein binding microarray
Form: double-stranded DNA, one strand shown
Sample: in vitro
Concentration: not given
Setting: 8-mer, flanks averaged, mean of 2 arrays, mostly near background
Relative to: not given
Reading: higher = stronger binding
Target sequence (chain): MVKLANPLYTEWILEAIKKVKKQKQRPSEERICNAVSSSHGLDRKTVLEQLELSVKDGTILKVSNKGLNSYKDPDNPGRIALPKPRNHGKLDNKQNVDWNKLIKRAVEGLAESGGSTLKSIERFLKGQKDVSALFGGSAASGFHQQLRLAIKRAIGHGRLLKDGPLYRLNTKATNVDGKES
Strand	E-score
GCCCGAAC	-0.0123
ATCCTCGA	-0.127
ATACGAAG	-0.101
AAACCCCG	0.144
GAGGTCAA	-0.0121
ACTCTTAC	-0.102
GGTCCAGA	-0.0536
CGAGGGAC	0.0649
CAATTTAG	-0.245
GAATCGAA	-0.0132
GGTTCAAC	0.0811
GTATGGGA	-0.0428
ATAAATTG	-0.00873
ATAAATAC	-0.11
ATTCTCGG	0.123
CATGTGTC	0.0324
GAACTCGC	0.0741
CAGGCACA	-0.176
GCTGCCAA	-0.155
CTGAGTGA	-0.135
TGATTGAA	-0.0127
ATCTTTTA	-0.0455
AACTGCGT	0.16
ATATCCTA	-0.00553
AAAAATGT	0.0294

Series 3
Target: Sal-like protein 4, full length isoform A (SALL4, Homo sapiens, UniProt Q9UJQ4, residues 1-1053)
Chain of UniProt Q9UJQ4 (whole entry, looked up): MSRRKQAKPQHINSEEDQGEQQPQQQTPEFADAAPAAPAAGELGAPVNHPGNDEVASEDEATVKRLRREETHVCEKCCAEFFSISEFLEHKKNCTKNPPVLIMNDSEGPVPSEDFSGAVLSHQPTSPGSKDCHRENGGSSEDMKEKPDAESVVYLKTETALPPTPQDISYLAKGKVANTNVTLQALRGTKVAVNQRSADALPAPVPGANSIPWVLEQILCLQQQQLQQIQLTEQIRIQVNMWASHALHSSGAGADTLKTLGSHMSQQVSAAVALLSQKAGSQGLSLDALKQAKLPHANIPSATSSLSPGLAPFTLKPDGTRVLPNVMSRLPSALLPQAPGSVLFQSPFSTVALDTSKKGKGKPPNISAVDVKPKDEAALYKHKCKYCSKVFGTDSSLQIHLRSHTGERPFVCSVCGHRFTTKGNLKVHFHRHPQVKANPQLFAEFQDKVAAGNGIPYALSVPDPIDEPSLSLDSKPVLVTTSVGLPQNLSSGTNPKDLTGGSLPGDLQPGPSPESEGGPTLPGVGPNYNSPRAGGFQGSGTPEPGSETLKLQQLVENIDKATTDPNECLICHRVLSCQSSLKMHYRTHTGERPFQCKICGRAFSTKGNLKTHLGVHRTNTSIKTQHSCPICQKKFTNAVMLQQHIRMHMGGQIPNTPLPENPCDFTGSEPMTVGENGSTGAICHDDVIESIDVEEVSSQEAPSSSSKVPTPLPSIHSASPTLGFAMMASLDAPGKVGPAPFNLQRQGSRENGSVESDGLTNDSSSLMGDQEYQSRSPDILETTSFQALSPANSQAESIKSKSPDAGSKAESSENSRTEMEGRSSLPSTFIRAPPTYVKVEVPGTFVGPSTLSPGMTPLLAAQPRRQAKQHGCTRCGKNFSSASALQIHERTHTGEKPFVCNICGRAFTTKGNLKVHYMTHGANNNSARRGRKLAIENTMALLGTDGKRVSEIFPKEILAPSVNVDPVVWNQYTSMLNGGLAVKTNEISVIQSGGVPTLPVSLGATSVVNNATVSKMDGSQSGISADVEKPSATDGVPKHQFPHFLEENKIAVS
Method: universal PBM
Form: double-stranded DNA, one strand shown
Sample: in vitro
Concentration: 600 nM
Setting: 8-mer, flanks averaged, mean of replicates
Reading: higher = stronger binding
Strand	E-score
CAGGCGCC	-0.265
GGAATTAA	0.269
CGTAGTAA	0.117
ACATTGCG	0.0124
ATTCGAAC	0.122
CTCCCGAA	-0.11
CAGTAGCA	-0.0365
AATGCTCG	0.111
ATACCCAC	0.094
TATTAACA	0.343
ACTGCCGC	-0.249
TATCGATA	0.153
CCTTGAAC	-0.102
ACTAGTGG	-0.134
CTAATAAG	0.253
GTCAACTA	0.194
AGGCTACA	0.0242
CAGTAGTC	-0.0838
AGCGAGTG	-0.178
ACCTTGAA	0.0538

Series 4
Target: Phosphate system positive regulatory protein PHO4, full length, GST-tagged (PHO4, Saccharomyces cerevisiae, UniProt P07270, residues 1-312)
Chain of UniProt P07270 (whole entry, looked up): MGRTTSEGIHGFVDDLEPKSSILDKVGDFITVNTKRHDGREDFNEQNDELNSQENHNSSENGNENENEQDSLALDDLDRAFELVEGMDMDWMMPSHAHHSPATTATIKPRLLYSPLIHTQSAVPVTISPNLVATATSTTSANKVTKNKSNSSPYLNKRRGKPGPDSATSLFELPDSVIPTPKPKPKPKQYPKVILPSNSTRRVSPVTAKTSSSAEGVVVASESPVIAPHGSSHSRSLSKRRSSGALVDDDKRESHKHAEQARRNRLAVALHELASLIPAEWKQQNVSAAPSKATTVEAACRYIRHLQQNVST
Method: competition protein-binding microarray
Form: double-stranded DNA, one strand shown
Sample: in vitro
Concentration: 2 µM
Setting: whole 60-bp probe, lowest competitor level
Added: Cbf1 competitor, 0.05 µM
Reading: higher = stronger binding
Shared flanks, not repeated: … GTCTTGATTCGCTTGACGCTGCTG
Strand	fluorescence intensity [a.u.]
GACGCTGAGCTCCATCACGGGCTACGCCAGCGCAGC	4870
CAGCGAGAACATCACCACGGGCTATATAAATGGAAA	8580
TTCTCTAAAAGCCATCACGTGACTCGTTGAATCACT	14600
CTAACGAAGGTTTGCACTGTGGGTGACAAGCCAAGT	4170
TTACGGGACTTTTGTCATGCGGGCTGTCAAGCAGGC	4880
AGACATGTCGAATCGCACGCTGTTGCATTAAAAGTA	9830
TAATCCTCAACACTACCCGTGGTGAATGTCCTAAAG	7470
GCACCACACAGGTTTTACGTGCGGACAAGACCGTTG	5270
CGTCCTAGTGATTGCAAAGTGGGTGCCATGAGGAAG	6850
CGCTTGACGAACCATCACGTTTGTCAATAACACTTC	9650
GTACAATAACATATGCACATGGCAACGGGTCTTGGT	12100
TGTACCGGGTGGGACGTCGTGCAAAGAATCAGAAGT	8120
CATACCCAACCTTGAGTCGTGGGTGAAGATATTTGT	7950
CTTCTGTAAATTTTTCACGTGCAATGACGCGCCCCG	14000
AAAGCGGTAATTTGTAGCGTGGGTGCAGATATCTAT	7850
ACCGCGGACGACGGCCACGCAGGCAAAGAATGCTTT	6850

Series 5
Target: Interferon regulatory factor 5, full length, phosphomimetic (IRF5, Homo sapiens, UniProt Q13568-2, residues 1-514, S451D/S453D/S456D/S462D)
Method: protein-binding microarray
Form: double-stranded DNA, one strand shown
Sample: in vitro
Concentration: 940 nM top
Setting: 60-bp whole probe
Added: salmon DNA 0.4 mg/ml
Relative to: random background probes
Reading: higher = stronger binding
Shared flanks, not repeated: GCCTAGCAC … GTCTTGATTCGCTTGACGCTGCTG
Strand	fitted relative affinity [z-score]
TTAGGTTTCCTTCTCCTTAAGTGCTAG	2.49
TTAGAACTGAGTTTTGATTAGTGCTAG	-0.0268
GATGGTTTCGGGACTGGGGACGTGCTA	8.48
TTAGGTATCGGGTTTCGGTAAGTGCTA	7.91
TTAGGTTTTGACTTTCGGTTAGTGCTA	3.49
TTATATCTCAGTTTCGATTAGTGCTAG	8.62
TTAGGTATCGGGACTCGGTTAGTGCTA	4.15
AGATGTATGAGCCTCTGTTTGTGCTAG	-0.147
GACGATCTCAGTTTCGACACGTGCTAG	4.87
TTAGGTATCGACACTGGGTCAGTGCTA	4.59
GACGATTTCGGGCTTCGAGACGTGCTA	0.234
TCACGTAAGCAAAAATGACTGTGCTAG	-0.6
ACAAGTTTCTCCTTTCGGAAGTGCTAG	3.77
TTAGATCCCAGTATCGATTAGTGCTAG	4.63
TTTTTTTTATCAATCATTTTGTGCTAG	1.22
ATATGTATATATGTGTATATGTGCTAG	-0.107
TTAGGTTTCAGACTGGGTTAGTGCTAG	2.12
GACGGTTCCGGTCTCGGGACGTGCTAG	2.75
GACGAACTGGTGTATCGAGACGTGCTA	0.307
TGGAGTCTCTGTTCTTTTCAGTGCTAG	2.34
TTAGGTTTCGATTATCGGTTAGTGCTA	13.5
ACAGCAAGCAGGGCCAGCCCGTGCTAG	-1.09
GACGAACTGAGATTGGAGACGTGCTAG	-0.554
GACGGTTCCGGTTTCGTGACGTGCTAG	3.95
TCATGTCCTCCTCTCTCACTGTGCTAG	0.809

Some of these lines once more (series 5):
Strand	fitted relative affinity [z-score]
GACGGTTCCGGTCTCGGGACGTGCTAG	2.75
TTAGGTTTTGACTTTCGGTTAGTGCTA	3.49
TTAGGTTTCAGACTGGGTTAGTGCTAG	2.12
TTAGGTATCGACACTGGGTCAGTGCTA	4.59
TGGAGTCTCTGTTCTTTTCAGTGCTAG	2.34
